# Experimental data of several laboratories.
# Numbers after ± are the reported error.
SMILES,cell line,test,system,setting,how to read,quantity,result
O=c1n(CCNCCOS(=O)(=O)c2ccccc2)c(=O)n(S(=O)(=O)c2ccccc2)c(=O)n1S(=O)(=O)c1ccccc1,A549,"cell growth or viability, MTT",,"200 µg/mL, 48 h",,viability,12.8%
CC(=O)OC1C(=O)C2(C)C(O)CC3OCC3(OC(C)=O)C2C(OC(=O)c2cccc(OC(F)(F)F)c2)C2(O)CC(OC(=O)C(O)C(C=C(C)C)NC(=O)OC(C)(C)C)C(C)=C1C2(C)C (stereo not drawn),MCF7/PTX paclitaxel-resistant,cell viability,,,reference: compound over paclitaxel,potency ratio,120
CC1OC2OC3C4=C(OC3(C)C12O)C(=O)c1c(O)cccc1C4=O (stereo not drawn),HOP-62,SRB,,"10 µg/mL, 48 h",negative values mean cell killing,growth percent,-85.5%
O=C(C[Se]C(=O)c1ccccc1)Nc1cccc(C(F)(F)F)c1,NCI60 CNS subpanel,NCI60 five-dose screen,,,,CC50,7.81 µM
CC(C)[C@H](NC(=O)[C@H](CCCNC(=N)N)NC(=O)[C@@H]1CCCN1C(=O)[C@@H](NC(=O)[C@H](C)NC(=O)[C@H](Cc1ccc(O)cc1)NC(=O)[C@H](CCC(N)=O)NC(=O)[C@H](CCCCN)NC(=O)[C@H](CCCNC(=N)N)NC(=O)[C@@H]1CCCN1C(=O)[C@H](CCC(=O)O)NC(=O)[C@@H](NC(=O)[C@H](C)N)[C@@H](C)O)[C@@H](C)O)C(=O)N[C@@H](Cc1ccccc1)C(=O)N[C@@H](Cc1c[nH]c2ccccc12)C(=O)N[C@H](C(=O)N[C@@H](CC(=O)O)C(=O)N[C@@H](C)C(=O)N1CCC[C@H]1C(=O)NCC(=O)NCCOCCOCCOCCOCCOCCOCCOCCOCCOCCOCCOCCOCCC(=O)N[C@@H](CS)C(N)=O)[C@@H](C)O,H1355 lung adenocarcinoma,"cell binding, phage binding, refers to: output/input phage",,"10 min, 37 °C",reference: control phage,selectivity ratio,4.3 ± 2.6
O=C(C[Se]C(=O)c1ccco1)Nc1cccc(C(F)(F)F)c1,NCI60 colon subpanel,cell growth,,"10 µM, 48 h, one-dose",,mean growth percent,22.7%
CC(C)C[C@H](NC(=O)[C@H](CCC(=O)O)NC(=O)[C@@H](NC(=O)CN)[C@@H](C)O)C(=O)N1CCC[C@H]1C(=O)N[C@@H](CO)C(=O)N1CCC[C@H]1C(=O)N1CCC[C@H]1C(=O)N[C@@H](CO)C(=O)N[C@H](C(=O)N[C@@H](Cc1c[nH]c2ccccc12)C(=O)N[C@@H](Cc1ccccc1)C(=O)N[C@@H](CCC(=O)O)C(=O)N[C@@H](C)C(=O)N[C@@H](CCC(=O)O)C(=O)N[C@@H](Cc1ccccc1)C(=O)O)C(C)C,HepG2,MTT,,"40 µg/mL, 24 h",,viability,92.94 ± 0.66%
Cc1cc(Oc2nc(N3CC[C@@H](c4ccncc4)C3)ncc2F)[nH]n1,SU-DHL-6,cell proliferation,blood cancer,,,IC50,26.9 µM
O=C(O)c1ccc(-c2nc(-c3ccccc3Cl)c3sccn23)cc1,K562,"erythroid differentiation, flow cytometry",,"0.01 mM, 72 h, unit not given",reference: untreated,CD71 fluorescence intensity,1
O=C(C[Se]C(=O)C12CC3CC(CC(C3)C1)C2)Nc1cccc(C(F)(F)F)c1,NCI60 breast subpanel,NCI60 five-dose screen,,,,CC50,55 µM
Cc1ccc(C(C)C)cc1.Cc1ccc(C(C)C)cc1.Cc1ccc(C(C)C)cc1.Cc1ccc(C(C)C)cc1.O=S(=O)(O)C(F)(F)F.O=S(=O)(O)C(F)(F)F.O=S(=O)(O)C(F)(F)F.O=S(=O)(O)C(F)(F)F.c1ccc2c3c4ccccc4c(c2c1)-c1cn(nn1)-c1cc[n+](cc1)[Ru-]1[O]c2ccc4c5c(ccc(c25)=[O+]1)=[O+][Ru-]([O]4)[n+]1ccc(cc1)-n1cc(nn1)-c1c2ccccc2c(c2ccccc12)-c1cn(nn1)-c1cc[n+](cc1)[Ru-]1[O]c2ccc4c5c(ccc(c25)=[O+]1)=[O+][Ru-]([O]4)[n+]1ccc(cc1)-n1cc-3nn1,HepG2,"cell growth or viability, MTT",,24 h,,IC50,4.4 µM
O=C1C(Cl)=C(Cl)C(=O)c2ccccc21,HepG2,MTT,,,reference: IC50 MRC-5 over IC50 HepG2,selectivity index,1.04
CSCC[C@H](N)C(=O)N[C@@H](C)C(=O)N[C@@H](Cc1c[nH]c2ccccc12)C(=O)N[C@@H](Cc1c[nH]cn1)C(=O)N[C@@H](CC(=O)O)C(=O)N[C@@H](CC(=O)O)C(=O)N[C@@H](CCC(=O)O)C(=O)N[C@@H](CCC(=O)O)C(=O)N[C@@H](Cc1ccccc1)C(=O)N[C@@H](C)C(=O)N[C@@H](CCCNC(=N)N)C(=O)N[C@@H](CCCNC(=N)N)C(=O)N[C@@H](CCCNC(=N)N)C(=O)N[C@@H](CCCNC(=N)N)C(=O)NCCCCCC(=O)NCCCCC(NC(=O)CCCCCNC(=O)[C@H](CCCNC(=N)N)NC(=O)[C@H](CCCNC(=N)N)NC(=O)[C@H](CCCNC(=N)N)NC(=O)[C@H](CCCNC(=N)N)NC(=O)[C@H](C)NC(=O)[C@H](Cc1ccccc1)NC(=O)[C@H](CCC(=O)O)NC(=O)[C@H](CCC(=O)O)NC(=O)[C@H](CC(=O)O)NC(=O)[C@H](CC(=O)O)NC(=O)[C@H](Cc1c[nH]cn1)NC(=O)[C@H](Cc1c[nH]c2ccccc12)NC(=O)[C@H](C)NC(=O)[C@@H](N)CCSC)C(=O)NCCCCC(NC(=O)C(CCCCNC(=O)CCCCCNC(=O)[C@H](CCCNC(=N)N)NC(=O)[C@H](CCCNC(=N)N)NC(=O)[C@H](CCCNC(=N)N)NC(=O)[C@H](CCCNC(=N)N)NC(=O)[C@H](C)NC(=O)[C@H](Cc1ccccc1)NC(=O)[C@H](CCC(=O)O)NC(=O)[C@H](CCC(=O)O)NC(=O)[C@H](CC(=O)O)NC(=O)[C@H](CC(=O)O)NC(=O)[C@H](Cc1c[nH]cn1)NC(=O)[C@H](Cc1c[nH]c2ccccc12)NC(=O)[C@H](C)NC(=O)[C@@H](N)CCSC)NC(=O)CCCCCNC(=O)[C@H](CCCNC(=N)N)NC(=O)[C@H](CCCNC(=N)N)NC(=O)[C@H](CCCNC(=N)N)NC(=O)[C@H](CCCNC(=N)N)NC(=O)[C@H](C)NC(=O)[C@H](Cc1ccccc1)NC(=O)[C@H](CCC(=O)O)NC(=O)[C@H](CCC(=O)O)NC(=O)[C@H](CC(=O)O)NC(=O)[C@H](CC(=O)O)NC(=O)[C@H](Cc1c[nH]cn1)NC(=O)[C@H](Cc1c[nH]c2ccccc12)NC(=O)[C@H](C)NC(=O)[C@@H](N)CCSC)C(N)=O (stereo partly drawn),mouse C57BL/6 BMMs,,,"1.0 µM, 3 days, added: RANKL",reference: untreated control,osteoclast formation,27%
CC1CCC2C(C)C(OC(=O)CCC(=O)N3CCC(Nc4ccc(S(=O)(=O)NC(=O)c5ccc(N6CCN(CC7=C(c8ccc(Cl)cc8)CC(C)(C)CC7)CC6)cc5Oc5cnc6[nH]ccc6c5)cc4[N+](=O)[O-])CC3)OC3OC4(C)CCC1C32OO4 (stereo not drawn),THP-1,"annexin V/PI flow cytometry, refers to: annexin V-/PI+",,"3.2 µM, 24 h",,necrotic cells,1.1%
CC(C)(C)C(=O)OCOP(=O)(OCOC(=O)C(C)(C)C)C1CCCN(O)C1=O (stereo not drawn),COLO 205,,,,,TGI,3.64 µM
COc1ccccc1-c1ccncc1C(=O)Nc1nnc(OCc2ccc(Cl)cc2)s1,HCT-116 BRCA2 wild-type,,,2 µM,reference: untreated,colony survival,96.8%
O=C(C[Se]C(=O)c1cccs1)Nc1cccc(C(F)(F)F)c1,NCI60 breast subpanel,NCI60 five-dose screen,,,,CC50,11.3 µM
CSCC[C@H](NC(=O)[C@@H](NC(=O)[C@H](CCC(N)=O)NC(=O)[C@H](CO)NC(=O)[C@@H](N)C(C)C)[C@@H](C)O)C(=O)N[C@@H](CCCNC(=N)N)C(=O)N[C@@H](CCC(N)=O)C(=O)N[C@H](C(=O)N[C@@H](C)C(=O)N[C@H](C(=O)N1CCC[C@H]1C(=O)N[C@@H](CC(C)C)C(=O)N[C@@H](CC(C)C)C(=O)N[C@@H](Cc1c[nH]c2ccccc12)C(=O)N[C@@H](Cc1ccccc1)C(=O)N[C@@H](Cc1c[nH]c2ccccc12)C(=O)N[C@H](C(=O)NCC(=O)N[C@@H](CO)C(=O)N[C@@H](CC(C)C)C(=O)NCCOCCOCCOCCOCCOCCOCCOCCOCCOCCOCCOCCOCCC(=O)N[C@@H](CS)C(N)=O)[C@@H](C)O)C(C)C)[C@@H](C)O,H1355 lung adenocarcinoma,"cell binding, phage binding, refers to: output/input phage",,"10 min, 37 °C",reference: control phage,selectivity ratio,6.4 ± 3.9

# Some of these lines once more:
SMILES,cell line,test,system,setting,how to read,quantity,result
O=c1n(CCNCCOS(=O)(=O)c2ccccc2)c(=O)n(S(=O)(=O)c2ccccc2)c(=O)n1S(=O)(=O)c1ccccc1,A549,"cell growth or viability, MTT",,"200 µg/mL, 48 h",,viability,12.8%
CC(=O)OC1C(=O)C2(C)C(O)CC3OCC3(OC(C)=O)C2C(OC(=O)c2cccc(OC(F)(F)F)c2)C2(O)CC(OC(=O)C(O)C(C=C(C)C)NC(=O)OC(C)(C)C)C(C)=C1C2(C)C (stereo not drawn),MCF7/PTX paclitaxel-resistant,cell viability,,,reference: compound over paclitaxel,potency ratio,120
